# Results from different studies.
# Numbered parts are unrelated; each lists some results of a single study. Substitutions count along the parent as printed.

# Sample 1
# Organism: Saccharomyces cerevisiae
# Observed: pheromone growth arrest
# Method: yeast competitive growth sequencing
# Form: peptide
# Strain: no Cln2 overexpression
# Setting: peptide tiling library
# Direction: direction not given
Sequence,enrichment score
RKLDLEGIGR,0.48
ARKRLELGNLGNPQ,-0.413
GAEELEDLVHFSVSEL,0.48
NNIRKALSFDNRGEEH,-0.145
NFETPEAETPIRSPFK,0.387
PPTFLSTGEIHAFLSS,0.014
TTTTSPRTPPPLTVQD,0.399
VSRNLRSSLKSSLHTL,0.0975
DWDTVERQEEEAPSWD,0.747
SCCKRKLVVGNGPEGP,-0.443

# Sample 2
# Target: BATF2, bZIP domain (human)
# Method: DHFR protein complementation
# Medium: yeast
# Setting: single substitutions, most at no-binding floor
# Baseline: wild-type JUN-FOS pair
# Direction: higher = stronger binding
# Starting sequence: JUN, bZIP domain (human); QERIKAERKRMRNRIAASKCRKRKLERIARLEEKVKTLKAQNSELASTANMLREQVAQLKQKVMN; partner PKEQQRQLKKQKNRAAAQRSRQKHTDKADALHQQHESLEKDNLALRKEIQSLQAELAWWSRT
Change,binding fitness [natural log]
A40T,-0.213
I28D,-0.481
R53V,-1.38
A57K,-0.274
E44R,-0.44
E44A,-0.366
E54P,-1.33
A46P,-1.28
R53Q,-0.856
K39H,-0.468
T37G,-0.319
Q58S,-0.246
N42D,-1.41
Q41E,-0.182
L38W,-1.4
A29Y,-0.58
V35M,-0.888
E32L,-0.704
S47F,-0.311
S43E,-0.0669
K34G,-0.301
A29S,-0.403
K39E,-0.335

# Sample 3
# Target: RING finger protein unkempt homolog, zinc fingers 1-6, GST-SBP tag (UNK, Homo sapiens, UniProt Q9C0B0, residues 30-357)
# Chain of UniProt Q9C0B0 (30-357, looked up): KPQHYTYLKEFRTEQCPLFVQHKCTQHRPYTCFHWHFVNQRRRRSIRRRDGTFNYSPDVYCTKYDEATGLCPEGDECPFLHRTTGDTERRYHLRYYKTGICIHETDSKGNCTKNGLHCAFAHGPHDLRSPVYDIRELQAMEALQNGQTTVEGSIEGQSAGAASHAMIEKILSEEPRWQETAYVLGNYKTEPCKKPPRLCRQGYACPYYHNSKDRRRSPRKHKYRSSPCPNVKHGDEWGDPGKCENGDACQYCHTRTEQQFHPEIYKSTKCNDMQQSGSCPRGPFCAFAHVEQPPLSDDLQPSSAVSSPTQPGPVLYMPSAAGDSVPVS
# Method: RNA Bind-n-Seq
# Form: RNA
# Medium: in vitro
# Concentration: not given
# Setting: RNA with constant flanks, human-mouse chimeric sites, ends assumed
# Baseline: input RNA pool
# Direction: higher = stronger binding
# Constant ends, left off below: GGGAGUUCUACAGUCCGACGAUC … CAACAGAGGAUUGAGCAUCA
Oligonucleotide,bound/input enrichment
UCAGGAACCCAGACAAACAUGAAUGUAAAUGAAGUCAUUAGCAAUAGAGCAAUUGAAAUGUUAGGAGGUGAACUUGGCAGCAAGAAGCCUGUGCAUCCCAAUGAUCAUGUUAACAAAAGC,0.695 ratio
GAAUCCUACUCAGGCGGAUUUUGCAACACCAAGCUCACAGCAGCAGCAUCUUAGUCACAGUUAGGUAGUUUUGGGGCUCUGUGGCCAGGGUUUUAUUCACAUGCAGGUUUGGAAAAUGUA,3.17 ratio
CGCAGAAGGUUAAAGGGUGAGAGUGGGGUGGAAGACUGUGUCAUGGCUCUGGAGACACUGUUCAGUGUCCUGCUUUCUCUGUGCAGACUUAUGGCUCCUUACACGCCCUUUCUGACUGAG,0.0699 ratio
GAUCAUGGAACCAGAAUAGAAAUGAAGAUGAGAUUACCCAAGACGAGCAAAACAGCUGCGCUACAGAAAAGUAAACUUAACCUUGCAGAGUUCCUUAAUGAAGAUACAAGUUAAGAGAGC,0.451 ratio
AAAUUUCCCCUCCUGAGACCUCCUCCGAAGUUGGAGUCUCUUACAGAUGCCUCAUCCCCUGUUAGCGUUUUAGUUUGGACCACACAACCUUGGACAAUUCCCGCCAACCAGGCAAUUUGC,2.16 ratio
UUGAAAACUGAUUCAAGUAAGUUUGAGUAUCACAAUGUUAGCUUUCUAAUUCCAUAAAGAUAGUUUUUUUUUACAGUAACCCCACAUACAUCACCCCAGCGCCAUUUGUAAAGAGCAACU,13.8 ratio
AAAGGCAAAAAGGGCAGCUGUGUCAUUUCAUAAGUAACUCUGGGGGAGGGAAAUUCUGUUCUUUUGUUUAAUUUUCCCCCAAAUGAAGCCAAAGUGUUUUUUAAGGAACUGAGAAAAAAU,0.402 ratio
UGACAAGGGCACUGCAGAGCCAUGCCUUUCCUUGACAUCCAGAAAAGGCUGGGCAUCAGCCUGGACCGGCACUUUAUGUUCCUAAGCGCAGAACAGCCCUACAAGAUCGCCGCUCGGUGC,0.0749 ratio
UUAAUCCCCUUUACUGCUCCACCACUGCUCAUGGUAAUAACAAAGUCUUAUAUCCCCGUCCUAGCUUUCACUCAGAUGGCUUAUGGAGCCGGUUUCCUAGCUUUCUUGGGUGGGAUCAGA,0.344 ratio
AACGUGGAGUUGAGUUCGCUGGCCCGGCUUCCCAGCUUAAAUAAACUCCGGAAGUUGGAACUUAGUGACAAUAUAAUUUCUGGAGGCUUGGAAGUCCUGGCAGAGAAAUGUCCAAAUCUU,0.208 ratio
AAUUUCCUGUCAUACUUUUUAGACAUUCACAUCAGACUUACAGAGCACCUGGCCACAUUCUAGGUUUGUGUUAUUUCUCAGCUAUGGAUAUGAUCAAAGAGUGAAAAUGCUUAACUAAUG,0.393 ratio

# Sample 4
# Target: Sal-like protein 4, full length isoform A (SALL4, Homo sapiens, UniProt Q9UJQ4, residues 1-1053)
# Chain of UniProt Q9UJQ4 (whole entry, looked up): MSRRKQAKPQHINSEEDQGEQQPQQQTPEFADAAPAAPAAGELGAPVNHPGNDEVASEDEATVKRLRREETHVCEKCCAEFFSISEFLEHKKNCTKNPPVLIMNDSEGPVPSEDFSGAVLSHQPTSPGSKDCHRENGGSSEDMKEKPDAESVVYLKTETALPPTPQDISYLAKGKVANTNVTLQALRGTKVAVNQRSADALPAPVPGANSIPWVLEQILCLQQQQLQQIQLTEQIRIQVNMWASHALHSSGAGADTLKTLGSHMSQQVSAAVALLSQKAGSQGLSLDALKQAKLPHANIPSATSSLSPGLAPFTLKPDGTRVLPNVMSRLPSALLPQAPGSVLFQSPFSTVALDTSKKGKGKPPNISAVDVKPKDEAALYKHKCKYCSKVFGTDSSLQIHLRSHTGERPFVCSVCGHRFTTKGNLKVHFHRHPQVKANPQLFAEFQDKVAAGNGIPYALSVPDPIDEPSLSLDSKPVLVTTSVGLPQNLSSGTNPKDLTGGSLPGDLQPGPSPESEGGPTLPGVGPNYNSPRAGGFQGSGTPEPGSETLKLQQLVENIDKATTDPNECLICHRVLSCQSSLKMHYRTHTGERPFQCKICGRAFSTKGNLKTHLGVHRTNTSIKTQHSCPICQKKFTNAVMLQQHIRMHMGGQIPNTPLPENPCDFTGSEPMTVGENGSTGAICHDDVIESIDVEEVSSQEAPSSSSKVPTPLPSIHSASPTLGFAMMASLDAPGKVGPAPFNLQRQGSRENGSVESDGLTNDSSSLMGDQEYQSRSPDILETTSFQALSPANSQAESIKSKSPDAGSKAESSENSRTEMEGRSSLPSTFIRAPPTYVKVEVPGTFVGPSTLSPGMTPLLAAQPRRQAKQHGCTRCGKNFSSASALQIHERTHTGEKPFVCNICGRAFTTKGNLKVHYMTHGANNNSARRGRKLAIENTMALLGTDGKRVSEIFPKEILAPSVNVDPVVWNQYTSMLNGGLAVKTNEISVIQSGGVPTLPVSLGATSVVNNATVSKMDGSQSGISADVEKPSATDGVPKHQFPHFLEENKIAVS
# Method: universal PBM
# Form: double-stranded DNA, one strand shown
# Medium: in vitro
# Concentration: 600 nM
# Setting: 8-mer, flanks averaged, mean of replicates
# Direction: higher = stronger binding
Oligonucleotide,E-score
CTAGGTAC,-0.126
TGCACGAA,0.118
AACTGCAG,-0.0791
CCAAGATA,0.13
GCGGCTTA,-0.144
ATGCCAAC,0.112
CAAACAAC,0.196
CGCCTTCC,-0.221
ACGAACAA,0.238
CATGCAAC,0.0907
AGACCATA,0.118
CACGCGCG,-0.213
CCTAATTC,0.197
CTTTGCGA,-0.0646
ACACATTC,0.168
CGGTTGTA,-0.242
ATTCCTCA,0.194
CGGTGCTC,-0.241
ACTAGAGC,-0.124
GTGACCTA,-0.0953
CGGGCCGC,-0.441
CACATCTG,-0.0436
AGCCATCA,-0.046
AGGATCCA,-0.169
ACTCATCC,0.0612

# Excerpt of the above (sample 4):
Oligonucleotide,E-score
CACGCGCG,-0.213
CCTAATTC,0.197
CTTTGCGA,-0.0646
ACACATTC,0.168
CGGTTGTA,-0.242
